Published values of several laboratories.
Each line is one published result; not all experiments were run side by side.
Target: Mu-type opioid receptor (Oprm1, Rattus norvegicus, UniProt P33535)
UniProt P33535, sequence (whole entry, looked up): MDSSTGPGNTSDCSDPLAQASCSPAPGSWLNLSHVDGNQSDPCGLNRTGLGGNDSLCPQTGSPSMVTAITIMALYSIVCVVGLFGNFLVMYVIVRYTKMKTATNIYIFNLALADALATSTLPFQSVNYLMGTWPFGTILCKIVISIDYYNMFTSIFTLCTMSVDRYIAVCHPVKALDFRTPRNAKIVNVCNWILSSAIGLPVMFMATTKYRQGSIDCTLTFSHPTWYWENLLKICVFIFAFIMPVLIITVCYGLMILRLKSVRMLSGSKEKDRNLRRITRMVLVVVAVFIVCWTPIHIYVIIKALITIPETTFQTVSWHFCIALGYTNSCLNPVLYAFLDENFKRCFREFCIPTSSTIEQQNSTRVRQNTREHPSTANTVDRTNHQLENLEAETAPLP

Cc1cc(O)cc(C)c1CC(N)C(=O)NC1CCNc2ccc(Cc3ccoc3)cc21 (centres unmarked) gave a Ki of 0.8 nM (ligand displacement, radioligand; cell membranes).
The Ki of CCC(=O)N(CC1CCCCN1C(=O)[C@H](Cc1ccccc1)NC(=O)CNC(=O)[C@@H](C)NC(=O)[C@@H](N)Cc1c(C)cc(O)cc1C)c1ccccc1 (some centres unmarked) is reported as 0.8 nM (cell-free assay).
With N=C(N)NCCC[C@@H]1NC(=O)[C@H](CCCNC(=N)N)NC(=O)[C@H](NC(=O)[C@H](Cc2ccccc2)NC(=O)CNC(=O)CNC(=O)[C@H](Cc2ccc(O)cc2)NCc2ccccc2)CC(=O)NCC[C@@H](C(=O)N[C@@H](CCCNC(=N)N)C(=O)N2CCC[C@H]2C(=O)N[C@@H](CCCCN)C(N)=O)NC1=O the Ki was 3200 nM (ligand displacement, radioligand; cell membranes).
With NCCCC[C@H]1NC(=O)[C@H](Cc2ccc(O)cc2)NC(=O)CNC(=O)[C@H](Cc2ccc(O)cc2)NC(=O)[C@H](CNC(=O)c2ccccc2N)NC1=O the Ki was 39 nM (ligand displacement, radioligand; cell membranes).
For CC[C@H](C)[C@H](NC(=O)[C@H](CCCNC(=N)N)NC(=O)[C@H](CCCNC(=N)N)NC(=O)[C@@H]1C/C=C/COc2ccc(cc2)C[C@H](NC(=O)[C@H](Cc2ccccc2)NC(=O)[C@H](Cc2ccccc2)NC(C)=O)C(=O)N[C@@H](CCCNC(=N)N)C(=O)N1)C(=O)N[C@@H](CCCNC(=N)N)C(=O)N1CCC[C@H]1C(=O)N[C@@H](CCCCN)C(N)=O, the Ki was 3460 nM (ligand displacement, radioligand).
For CC(C)C[C@H](NC(=O)[C@H](CCCNC(=N)N)NC(=O)[C@H](Cc1c[nH]c2ccccc12)NC(=O)[C@H](Cc1ccccc1)NC(=O)[C@H](Cc1ccccc1)N(C)C(=O)CN)C(=O)N[C@@H](CCCNC(=N)N)C(=O)N[C@@H](CCCNC(=N)N)C(=O)N[C@H](C)C(=O)N[C@@H](CCCNC(=N)N)C(=O)N1CCC[C@H]1C(=O)N[C@@H](CCCCN)C(N)=O, the Ki was 502 nM (ligand displacement, radioligand).
CC(C)C[C@H](NC(=O)C1(NC(=O)CNC(=O)[C@H](NC(=O)[C@@H](N)Cc2ccc(O)cc2)[C@H](C)O)Cc2ccccc2C1)C(=O)N[C@@H](CO)C(N)=O gave a Ki of greater than 1000 nM (ligand displacement, radioligand; pH 7.4, cell membranes).
For Cc1cc(O)cc(C)c1CC(N)C(=O)NC1CCNc2c1cc(Cc1ccccc1)cc2C(C)(C)C (centres unmarked), the Ki was 0.47 nM (ligand displacement, radioligand; cell membranes).
With C[C@@H](NC(=O)[C@@H](N)Cc1ccc(O)cc1)C(=O)NCC(=O)N[C@@H](Cc1ccc(F)cc1)C(=O)Nc1ccccc1NC(=O)[C@H](Cc1ccc(F)cc1)NC(=O)CNC(=O)[C@@H](C)NC(=O)[C@@H](N)Cc1ccc(O)cc1 the Ki was 0.51 nM (ligand displacement, radioligand; cell membranes).
Oc1cccc(CCN(CCc2ccccc2)CC2CCCC2)c1 gave a Ki of 130 nM (ligand displacement, radioligand; cell membranes).
With Cc1cc(O)cc(C)c1CC(N)C(=O)NC1CCNc2c(C)cc(Cc3ccccc3)cc21 (centres unmarked) the Ki was 0.24 nM (ligand displacement, radioligand; cell membranes).
For CC(=O)N1CCC(NC(=O)C(N)Cc2c(C)cc(O)cc2C)c2cc(CN3CCC4CCCCC4C3)ccc21 (centres unmarked), the Ki was 0.8 nM (ligand displacement, radioligand; cell membranes).
With COC(=O)N(C)[C@@H](Cc1ccccc1)C(=O)N[C@@H](Cc1ccccc1)C(=O)N[C@@H](CC1CCCCC1)C(=O)N[C@@H](CCCNC(=N)N)C(=O)N[C@@H](CC(C)C)C(=O)N[C@@H](CCCNC(=N)N)C(=O)N[C@@H](CCCNC(=N)N)C(=O)N[C@H](C)C(=O)N[C@@H](CCCNC(=N)N)C(=O)N1CCC[C@H]1C(=O)N[C@@H](CCCCN)C(N)=O the Ki was 818 nM (ligand displacement, radioligand).
With CC(C)C[C@H](NC(=O)[C@H](Cc1ccc2ccccc2c1)NC(=O)CNC(=O)[C@H](NC(=O)[C@@H](N)Cc1ccc(O)cc1)[C@H](C)O)C(=O)N[C@@H](CO[C@@H]1O[C@H](CO)[C@@H](O)[C@H](O)[C@H]1O)C(N)=O the Ki was 4.9 nM (ligand displacement, radioligand; pH 7.4, cell membranes).
CCOC(=O)c1cc(Cc2ccccc2)cc2c1NCCC2NC(=O)C(N)Cc1c(C)cc(O)cc1C (centres unmarked) has a Ki of 1 nM (ligand displacement, radioligand; cell membranes).
The Ki of CC(C)C[C@H](NC(=O)[C@H](CCCNC(=N)N)NC(=O)[C@H](Cc1ccccc1)NC(=O)[C@H](Cc1ccccc1)NC(=O)[C@H](Cc1ccccc1)N(C)C(=O)CN)C(=O)N[C@@H](CCCNC(=N)N)C(=O)N[C@@H](CCCNC(=N)N)C(=O)N[C@H](C)C(=O)N[C@@H](CCCNC(=N)N)C(=O)N1CCC[C@H]1C(=O)N[C@@H](CCCCN)C(N)=O is reported as 3070 nM (ligand displacement, radioligand).
With Cc1cc(O)cc(C)c1CC(N)C(=O)NC1CCNc2c(Br)cc(Cc3ccccc3)cc21 (centres unmarked) the Ki was 0.23 nM (ligand displacement, radioligand; cell membranes).
CC(=O)N[C@@H](Cc1ccccc1)C(=O)N[C@@H](Cc1ccccc1)C(=O)N[C@@H](Cc1c[nH]c2ccccc12)C(=O)N[C@@H](CCCNC(=N)N)C(=O)N[C@@H](CC(C)C)C(=O)N[C@@H](CCCNC(=N)N)C(=O)N[C@@H](CCCNC(=N)N)C(=O)N[C@H](C)C(=O)N[C@@H](CCCNC(=N)N)C(=O)N1CCC[C@H]1C(=O)N[C@@H](CCCCN)C(N)=O has a Ki of 1180 nM (ligand displacement, radioligand).
The Ki of CC(C)C[C@H](NC(=O)[C@H](Cc1ccc2ccccc2c1)NC(=O)CNC(=O)[C@H](NC(=O)[C@@H](N)Cc1ccc(O)cc1)[C@H](C)O)C(=O)N[C@@H](CO)C(N)=O is reported as 2.7 nM (ligand displacement, radioligand; pH 7.4, cell membranes).
The Ki of CC(=O)NCC(=O)N(C)[C@@H](Cc1ccccc1)C(=O)N[C@@H](Cc1ccccc1)C(=O)N[C@@H](Cc1ccccc1)C(=O)N[C@@H](CCCNC(=N)N)C(=O)N[C@@H](CC(C)C)C(=O)N[C@@H](CCCNC(=N)N)C(=O)N[C@@H](CCCNC(=N)N)C(=O)N[C@H](C)C(=O)N[C@@H](CCCNC(=N)N)C(=O)N1CCC[C@H]1C(=O)N[C@@H](CCCCN)C(N)=O is reported as greater than 10000 nM (ligand displacement, radioligand).
Cc1cc(O)cc(C)c1CC(N)C(=O)NC1CCNc2c(C(=O)NCc3ccccc3)cc(Cc3ccccc3)cc21 (centres unmarked) gave a Ki of 0.17 nM (ligand displacement, radioligand; cell membranes).
The Ki of CC(=O)N(C)[C@@H](Cc1ccccc1)C(=O)N[C@@H](Cc1ccccc1)C(=O)N[C@@H](Cc1c[nH]c2ccccc12)C(=O)N[C@@H](CCCNC(=N)N)C(=O)N[C@@H](CC(C)C)C(=O)N[C@@H](CCCNC(=N)N)C(=O)N[C@@H](CCCNC(=N)N)C(=O)N[C@H](C)C(=O)N[C@@H](CCCNC(=N)N)C(=O)N1CCC[C@H]1C(=O)N[C@@H](CCCCN)C(N)=O is reported as 2990 nM (ligand displacement, radioligand).
With CCc1cc(Cc2ccccc2)cc2c1NCCC2NC(=O)C(N)Cc1c(C)cc(O)cc1C (centres unmarked) the Ki was 0.09 nM (ligand displacement, radioligand; cell membranes).
With Cc1cc(O)cc(C)c1CC(N)C(=O)NC1CCNc2ccc(CN3CCCCCC3)cc21 (centres unmarked) the Ki was 0.15 nM (ligand displacement, radioligand; cell membranes).
For CCC(=O)N(CC1CCCCN1C(=O)[C@H](Cc1ccccc1)NC(=O)CNC(=O)[C@@H](C)NC(=O)[C@@H](N)Cc1ccc(O)cc1)c1ccccc1 (some centres unmarked), the Ki was 2 nM (cell-free assay).
The Ki of CC(=O)N(C)[C@@H](Cc1ccccc1)C(=O)N[C@@H](Cc1ccccc1)C(=O)N[C@@H](CC1CCCCC1)C(=O)N[C@@H](CCCNC(=N)N)C(=O)N[C@@H](CC(C)C)C(=O)N[C@@H](CCCNC(=N)N)C(=O)N[C@@H](CCCNC(=N)N)C(=O)N[C@H](C)C(=O)N[C@@H](CCCNC(=N)N)C(=O)N1CCC[C@H]1C(=O)N[C@@H](CCCCN)C(N)=O is reported as 5930 nM (ligand displacement, radioligand).
Cc1cc(O)cc(C)c1CC(N)C(=O)NC1CCNc2ccc(CN3CCCCC3)cc21 (centres unmarked) gave a Ki of 0.3 nM (ligand displacement, radioligand; cell membranes).
With CC(C)C[C@H](NC(=O)[C@H](CCCNC(=N)N)NC(=O)[C@H](Cc1ccccc1)NC(=O)[C@H](Cc1ccccc1)NC(=O)[C@H](Cc1ccccc1)N(C)C(=O)COc1ccccc1)C(=O)N[C@@H](CCCNC(=N)N)C(=O)N[C@@H](CCCNC(=N)N)C(=O)N[C@H](C)C(=O)N[C@@H](CCCNC(=N)N)C(=O)N1CCC[C@H]1C(=O)N[C@@H](CCCCN)C(N)=O the Ki was 1450 nM (ligand displacement, radioligand).
The Ki of Cc1cc(O)cc(C)c1CC(N)C(=O)NC1CCNc2ccc(CN3CCc4ccccc4C3)cc21 (centres unmarked) is reported as 0.03 nM (ligand displacement, radioligand; cell membranes).

For quick reference, copied from above:
For Cc1cc(O)cc(C)c1CC(N)C(=O)NC1CCNc2c1cc(Cc1ccccc1)cc2C(C)(C)C (centres unmarked), the Ki was 0.47 nM (ligand displacement, radioligand; cell membranes).
With C[C@@H](NC(=O)[C@@H](N)Cc1ccc(O)cc1)C(=O)NCC(=O)N[C@@H](Cc1ccc(F)cc1)C(=O)Nc1ccccc1NC(=O)[C@H](Cc1ccc(F)cc1)NC(=O)CNC(=O)[C@@H](C)NC(=O)[C@@H](N)Cc1ccc(O)cc1 the Ki was 0.51 nM (ligand displacement, radioligand; cell membranes).
Oc1cccc(CCN(CCc2ccccc2)CC2CCCC2)c1 gave a Ki of 130 nM (ligand displacement, radioligand; cell membranes).
